{"data": "Experimental data gathered from unrelated publications", "note": "A part holds a random share of what one study measured."}
{"data": "Study 1", "target": "Ras GTPase-activating protein-binding protein 1, full length (G3BP1, Homo sapiens, UniProt Q13283)", "technique": "RNA Bind-n-Seq", "form": "RNA", "sample": "in vitro", "tested at": "200 nM", "setting": "whole 134-nt RNA, ends assumed", "with": "150 mM LiCl", "reference": "input library", "reading": "higher = stronger binding", "each molecule": "7-deaza-guanosine replaces G", "all sequences stand within": "GGGAGUUCUACAGUCCGACGAUC … UGGAAUUCUCGGGUGUCAAGG", "sequence of UniProt Q13283 (whole entry, looked up)": "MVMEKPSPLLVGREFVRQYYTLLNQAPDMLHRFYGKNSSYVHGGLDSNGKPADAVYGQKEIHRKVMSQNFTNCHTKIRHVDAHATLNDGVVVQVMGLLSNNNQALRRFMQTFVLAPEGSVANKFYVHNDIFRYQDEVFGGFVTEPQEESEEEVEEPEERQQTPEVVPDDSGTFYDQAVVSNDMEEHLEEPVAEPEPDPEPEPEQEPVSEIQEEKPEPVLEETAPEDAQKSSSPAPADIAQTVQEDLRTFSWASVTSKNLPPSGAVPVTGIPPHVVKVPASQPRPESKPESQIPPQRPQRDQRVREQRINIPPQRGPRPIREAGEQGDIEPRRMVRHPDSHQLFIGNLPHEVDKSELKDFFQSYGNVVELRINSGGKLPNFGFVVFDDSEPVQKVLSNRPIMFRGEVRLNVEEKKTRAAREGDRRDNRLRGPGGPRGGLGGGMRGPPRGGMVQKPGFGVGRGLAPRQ"}
{"Strand": "UGGCCCUGGUGGCAUGCGGGGAGGAAGAGGUGGCCUCAUGGAUCGUCGUGGUCCCGGUGGAAUGUUCAGAGGUGGCCGUGGUGGAGACAG", "log2 enrichment": 0.866}
{"Strand": "UCCUGUGCUACACAUCGUAUGUACCGAAUCGUGUGUGUGUGUGUGUGUGUGUGUGUGUGAAAGUAUUAUGUUACGCCGUUCGGAUCUGCA", "log2 enrichment": -0.485}
{"Strand": "ACCAUGCAGGUGGGCAUCUUUGGGAAGUGGGGCAAGGGGGGGAUAGGGAGGGGGGUAACACUUUGGGAACAGGUGGUCCCAGGUAGUUUC", "log2 enrichment": 0.17}
{"Strand": "AAGUCCUGUGCUACACAUCGUAUGUACCGAAUCGGAAAAGGGAAAAGGGAAAAGGGGAAAGUAUUAUGUUACGCCGUUCGGAUCUGCACU", "log2 enrichment": 0.325}
{"Strand": "UGGCCCUGGUGGCAUGCGGGGAGGAAGAGGUGGCCUCAUGGAUCGUGGUGGUCCCGGUGGCAUGUUCAGAGGUGGCCGUGGUGGAGACAG", "log2 enrichment": 0.273}
{"data": "Study 2", "target": "RING finger protein unkempt homolog, zinc fingers 1-6, GST-SBP tag (UNK, Homo sapiens, UniProt Q9C0B0, residues 30-357)", "technique": "RNA Bind-n-Seq", "form": "RNA", "sample": "in vitro", "tested at": "not given", "setting": "RNA with constant flanks, human-mouse chimeric sites, ends assumed", "reference": "input RNA pool", "reading": "higher = stronger binding", "sequence of UniProt Q9C0B0 (30-357, looked up)": "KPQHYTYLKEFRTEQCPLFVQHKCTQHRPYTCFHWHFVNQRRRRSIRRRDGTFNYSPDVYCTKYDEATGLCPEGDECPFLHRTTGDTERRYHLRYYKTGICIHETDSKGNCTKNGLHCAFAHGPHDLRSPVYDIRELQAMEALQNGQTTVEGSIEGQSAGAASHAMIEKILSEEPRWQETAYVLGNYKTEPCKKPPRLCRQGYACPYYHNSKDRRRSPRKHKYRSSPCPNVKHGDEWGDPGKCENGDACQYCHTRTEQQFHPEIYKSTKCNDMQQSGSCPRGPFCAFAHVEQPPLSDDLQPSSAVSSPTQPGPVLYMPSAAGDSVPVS"}
{"Strand": "GGGAGUUCUACAGUCCGACGAUCGAUCUCGGGCCCUCCCCAGGGGCCUCCUUUCGUAUAGUCACUGCUUCUGCAUCAGAUACUUUCAGCUCCAAGUCCUGACUGGGUGGGGCACCCAUUUCAGGCAGAAGGUUUUGGUACCCUCAACAGAGGAUUGAGCAUCA", "bound/input enrichment [ratio]": 0.222}
{"Strand": "GGGAGUUCUACAGUCCGACGAUCGUAAUGGACGUCAACACUGCUCUACAAGAGGUGCUGAAGACUGCCCUCAUCCACGAUGGCCUAGCACGUGGAAUUCGCGAAGCUGCCAAAGCCUUAGACAAGCGCCAAGCCCAUCUGUGUCAACAGAGGAUUGAGCAUCA", "bound/input enrichment [ratio]": 0.676}
{"Strand": "GGGAGUUCUACAGUCCGACGAUCUUCAAAGGCUGUGUUAUCUGUGUCAUUUCAUAAGUAACUCUGGGGGAGGGAAAUUCUGUUCUUUUGUUUAAUUUUCCCCCAAAUGAAGCCAAAGUGUGUGUUGAAGAACUGAGAAAAAAUCAACAGAGGAUUGAGCAUCA", "bound/input enrichment [ratio]": 0.311}
{"Strand": "GGGAGUUCUACAGUCCGACGAUCGUAUACGGUUAUCGAGGAAAGGACUGUAGAGCGAAUGUAUACCUGCUUCCCACAGGGAAAAUAGUUUAUUUUAUCGCCUCAGUGGUAGUCCUGUUUAAUUAUGAGGAGAGGACUCAGCGACAACAGAGGAUUGAGCAUCA", "bound/input enrichment [ratio]": 19.9}
{"data": "Study 3", "target": "Histone acetyltransferase KAT6A, winged helix 1, GST fusion (KAT6A, Homo sapiens, UniProt Q92794, residues 1-85)", "technique": "protein binding microarray", "form": "double-stranded DNA, one strand shown", "sample": "in vitro", "tested at": "not given", "setting": "8-mer, flanks averaged, mean of 2 arrays, mostly near background", "reference": "not given", "reading": "higher = stronger binding", "Target sequence (chain)": "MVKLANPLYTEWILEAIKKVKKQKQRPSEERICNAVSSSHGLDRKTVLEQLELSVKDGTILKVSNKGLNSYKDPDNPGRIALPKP"}
{"Strand": "AGGATTCC", "E-score": -0.173}
{"Strand": "CCATCCGA", "E-score": -0.178}
{"Strand": "CTTTTGCC", "E-score": -0.00624}
{"Strand": "AATTTCGA", "E-score": -0.149}
{"Strand": "AGCCCAGA", "E-score": -0.134}
{"Strand": "CCGCCCTA", "E-score": 0.223}
{"Strand": "AAATATAG", "E-score": 0.0563}
{"Strand": "CCATCGTA", "E-score": -0.143}
{"Strand": "ACCCCAAA", "E-score": -0.211}
{"data": "Further values, each from its own experiment"}
{"Molecule": "PhoQ, residues 284 288 289 292 302 303 TTSMTC", "target": "PhoP, residues 12 14 15 18 19 LHHSG (Escherichia coli, UniProt P23836)", "test": "Sort-seq, item: YFP reporter", "test system": "E. coli", "setting": "PhoQ-PhoP variant library, with: 10 µM Mg2+", "how to read": "reference: high Mg2+ state, higher = stronger signaling", "measurement": "fold induction", "value": 12.8}
{"note": "Some of these lines once more (study 3):"}
{"Strand": "ACCCCAAA", "E-score": -0.211}
{"Strand": "CCATCCGA", "E-score": -0.178}
{"Strand": "AGCCCAGA", "E-score": -0.134}
